# Assay results from different studies.
# ± marks the error that the study gave.
# MDM2: E3 ubiquitin-protein ligase Mdm2 (MDM2, Homo sapiens, UniProt Q00987)
# MDM2 L33E L33E; with p53: E3 ubiquitin-protein ligase Mdm2, L33E; with p53 (MDM2, Homo sapiens, UniProt Q00987, L33E)
# MDM2 N-terminal domain 17-125: E3 ubiquitin-protein ligase Mdm2, N-terminal domain 17-125 (MDM2, Homo sapiens, UniProt Q00987)
# MDM2 residues 25-109: E3 ubiquitin-protein ligase Mdm2, residues 25-109 (MDM2, Homo sapiens, UniProt Q00987)
SMILES,target,test,test system,setting,endpoint,value
CCOC(=O)Nc1ccc2c(c1)CN1C(=S)N(c3ccc(C#N)c(C(F)(F)F)c3)C(=O)C1C2 (stereo not shown),MDM2,"binding, SPR",,,Kd,256 nM
CC(C)Oc1cc(NC(=O)[C@H](Cc2ccccc2)NC(=O)c2ccc(N)c(OCc3ccccc3)c2)ccc1C(=O)NCC(=O)O,MDM2 L33E L33E; with p53,fluorescence anisotropy competition,,pH 7.5,IC50,11900 ± 600 nM
CC(=O)N(CC(=O)N(C)[C@@H](C)C(=O)N(Cc1c[nH]c2cc(Cl)ccc12)[C@@H](C)C(=O)N(C)[C@@H](C)C(=O)N(CCC(C)(C)C)[C@@H](C)C(=O)N1CCNCC1)Cc1ccccc1,MDM2 N-terminal domain 17-125,"binding, fluorescence anisotropy",PBS with Tween,"25 °C, fluorescein-labelled peptoid, 10 nM",Kd,140 nM
CC(=O)N[C@@H](CCCCN)C(=O)N[C@@H](CCCCN)C(=O)NCCCCCC(=O)N[C@H](C(=O)N[C@@H](CO)C(=O)N[C@@H](Cc1ccccc1)C(=O)N[C@]1(C)CCCCCCCCCCC[C@@](C)(C(=O)N[C@@H](CCC(=O)O)C(=O)N[C@@H](CC(N)=O)C(=O)N[C@@H](Cc2ccccc2)C(N)=O)NC(=O)[C@H](CC(C)C)NC(=O)[C@H](CC(C)C)NC(=O)[C@H](C)NC(=O)[C@H](Cc2c[nH]c3ccccc23)NC(=O)[C@H](Cc2ccc(O)cc2)NC(=O)[C@H](CCC(=O)O)NC1=O)[C@@H](C)O,MDM2,"cell-free assay, FP",,pH 7.4,Kd,216 nM
CC(=O)N(Cc1ccccc1)[C@@H](C)C(=O)N(C)[C@@H](C)C(=O)N(Cc1c[nH]c2cc(Cl)ccc12)[C@@H](C)C(=O)N(C)[C@@H](C)C(=O)N(CCC(C)(C)C)[C@@H](C)C(=O)N1CCNCC1,MDM2,"binding, ITC",,,Kd,17.5 nM
CC(C)C[C@H](NC(=O)[C@H](CO)NC(=O)[C@H](Cc1c[nH]c2ccccc12)N1CCN[C@@H](Cc2ccccc2)C1=O)C(=O)O,"E3 ubiquitin-protein ligase Mdm2, N-terminal domain (MDM2, Homo sapiens, UniProt Q00987)","binding, competitive fluorescence polarization",,with: fluorescein-p53 peptide probe,Kd,> 400000 nM
CC(C)C[C@H](NC(=O)[C@H](CCC(N)=O)NC(=O)[C@@H]1CSSC[C@@H]2NC(=O)[C@H](CC(N)=O)NC(=O)[C@@H](N)CSSC[C@H](NC(=O)[C@H](Cc3ccccc3)NC(=O)[C@H](C)NC(=O)[C@H]([C@@H](C)O)NC(=O)[C@H](CCC(=O)O)NC(=O)[C@@H]3CCCN3C(=O)[C@H](C)NC(=O)[C@H](CCCCN)NC2=O)C(=O)N[C@@H](C)C(=O)N[C@@H](Cc2ccc(O)cc2)C(=O)N[C@@H](Cc2c[nH]c3ccccc23)C(=O)N1)C(=O)N[C@@H](Cc1c[nH]cn1)C(N)=O,MDM2 residues 25-109,SPR competition,,with: immobilised p53 peptide,Kd,83.2 ± 8.4 nM
CCOC(=O)[C@@H]1Cc2c(cc([N+](=O)[O-])cc2[N+](=O)[O-])[C@@H](O)[C@@]12C(=O)Nc1ccc(Br)cc12,MDM2,,,,IC50,1300 ± 400 nM
CC(C)C[C@H](NC(=O)[C@@H]1CSSC[C@@H]2NC(=O)[C@H](CC(N)=O)NC(=O)[C@@H](N)CSSC[C@H](NC(=O)[C@H](CC(C)C)NC(=O)[C@H](Cc3ccccc3)NC(=O)[C@H]([C@@H](C)O)NC(=O)[C@H](CCC(=O)O)NC(=O)[C@@H]3CCCN3C(=O)[C@H](C)NC(=O)[C@H](CCCCN)NC2=O)C(=O)N[C@@H](Cc2ccc(O)cc2)C(=O)N[C@@H](Cc2c[nH]c3ccccc23)C(=O)N[C@@H](CCCNC(=N)N)C(=O)N1)C(=O)N[C@@H](CCC(N)=O)C(N)=O,MDM2 residues 25-109,SPR competition,,with: immobilised p53 peptide,Kd,35.2 ± 3.7 nM
CC(=O)N(Cc1ccccc1)[C@@H](C)C(=O)N(C)CC(=O)N(Cc1c[nH]c2cc(Cl)ccc12)[C@@H](C)C(=O)N(C)CC(=O)N(CCC(C)(C)C)[C@@H](C)C(=O)N1CCNCC1,MDM2 N-terminal domain 17-125,"binding, fluorescence anisotropy",PBS with Tween,"25 °C, fluorescein-labelled peptoid, 10 nM",Kd,750 nM
CC(C)Oc1cc(NC(=O)[C@H](Cc2c[nH]c3ccccc23)NC(=O)c2ccc(N)c(OCc3ccccc3)c2)ccc1C(=O)NCC(=O)O,MDM2 L33E L33E; with p53,fluorescence anisotropy competition,,pH 7.5,IC50,11500 ± 300 nM
CC(=O)N(Cc1ccccc1)[C@@H](C)C(=O)N(C)[C@@H](C)C(=O)N(Cc1c[nH]c2cc(Cl)ccc12)[C@@H](C)C(=O)N(C)[C@@H](C)C(=O)N(CCC(C)(C)C)[C@@H](C)C(N)=O,MDM2,"ligand displacement, FP",,,Ki,340 nM
"CCOC(=O)[C@@H]1Cc2c(cc([N+](=O)[O-])cc2[N+](=O)[O-])[C@H](O)[C@]12C(=O)Nc1ccc(Cl)cc12 (single isomer, unassigned)",MDM2,,,,IC50,130 ± 40 nM

# Excerpt of the above:
SMILES,target,test,test system,setting,endpoint,value
"CCOC(=O)[C@@H]1Cc2c(cc([N+](=O)[O-])cc2[N+](=O)[O-])[C@H](O)[C@]12C(=O)Nc1ccc(Cl)cc12 (single isomer, unassigned)",MDM2,,,,IC50,130 ± 40 nM
